Measured values pooled from the literature.
Each line is one published result; not all experiments were run side by side. Several values in a cell are separate wells, animals, samples, runs or records.
Cell line: MCF7

C/C=C(\C)C(=O)O[C@@H]1[C@@H](O)[C@@H]2O[C@H]3[C@H](O[C@@H](CCCCC)CCCCCCC(=O)CCC(=O)OC[C@@H](O2)[C@H]1OC(=O)/C=C/c1ccccc1)O[C@H](C)[C@H](OC(C)=O)[C@@H]3O
IC50 (cytotoxicity): 43.7 nM

C=C(C[C@H](N)C(=O)O)C(=O)Nc1ccccc1
concentration increasing cytotoxicity (72 h; baseline: vehicle): 320 µM

CC[C@@]12SS[C@]3(C(=O)N1C)[C@@H](O)C1(C45c6ccccc6N[C@@H]4N4C(=O)[C@]6([C@@H](C)O)SS[C@]4(C(=O)N6C)[C@H]5O)c4ccccc4N[C@@H]1N3C2=O (stereo partly shown)
IC50 (cell growth or viability, SRB): 610 nM

CC/C(=C(\c1ccccc1)c1ccc(OCCN(C)C)cc1)c1ccccc1
concentration increasing cytotoxicity (72 h; baseline: vehicle): 100 µM

Cc1ncsc1-c1ccc(CNC(=O)[C@@H]2C[C@@H](O)CN2C(=O)[C@@H](NC(=O)COCCOCCOCCNC(=O)C[C@@H]2N=C(c3ccc(Cl)cc3)c3c(sc(C)c3C)-n3c(C)nnc32)C(C)(C)C)cc1
cellular uptake (LC-MS/MS; 100 nM, 12 h, serum-free, then 24 h; baseline: dose): 0.049%

CN1C(=O)[C@@]23C[C@]4([C@@]56c7ccccc7N[C@@H]5N5C(=O)[C@]7(C)SS[C@]5(C(=O)N7C)[C@H]6O)c5ccccc5N[C@@H]4N2C(=O)[C@]1(C)SS3
IC50 (cell growth or viability, SRB): 30 nM

N=C(N)NCCC[C@H](NC(=O)[C@H](CCCNC(=N)N)NC(=O)[C@H](CCCNC(=N)N)NC(=O)[C@H](CCCNC(=N)N)NC(=O)[C@H](CCCNC(=N)N)NC(=O)[C@H](CCCNC(=N)N)NC(=O)[C@H](CCCNC(=N)N)NC(=O)[C@H](CCCNC(=N)N)NC(=O)c1ccc2c(c1)C(=O)OC21c2ccc(O)cc2Oc2cc(O)ccc21)C(N)=O
LC50 (MTS): 80000 nM

C=C(C[C@H](N)C(=O)O)C(=O)Nc1ccc(Cl)cc1
concentration increasing cytotoxicity (72 h; baseline: vehicle): 320 µM

CCN1CCN(CC(=O)Nc2ccc(-c3cccc4c(=O)cc(N5CCOCC5)oc34)c3sc4ccccc4c23)CC1
fold enhancement (clonogenic survival; 1 µM, 16 h, together with: etoposide 1 µM; baseline: etoposide alone over combination): 8.9 fold and < 10 fold and 9 fold

CN1C(=O)[C@]23SS[C@@]1(C)C(=O)N2[C@H]1Nc2ccccc2[C@@]1([C@@]12c4ccccc4N[C@@H]1N1C(=O)[C@@]4(C)SS[C@]1(C(=O)N4C)[C@H]2O)[C@@H]3O
IC50 (cell growth or viability, SRB): 370 nM

For quick reference, copied from above:
Cc1ncsc1-c1ccc(CNC(=O)[C@@H]2C[C@@H](O)CN2C(=O)[C@@H](NC(=O)COCCOCCOCCNC(=O)C[C@@H]2N=C(c3ccc(Cl)cc3)c3c(sc(C)c3C)-n3c(C)nnc32)C(C)(C)C)cc1
cellular uptake (LC-MS/MS; 100 nM, 12 h, serum-free, then 24 h; baseline: dose): 0.049%
